Assay results gathered from unrelated publications.
Every numbered part comes from another study and shows a few of its results, in no order.
Sequence of UniProt P25098 (whole entry, looked up): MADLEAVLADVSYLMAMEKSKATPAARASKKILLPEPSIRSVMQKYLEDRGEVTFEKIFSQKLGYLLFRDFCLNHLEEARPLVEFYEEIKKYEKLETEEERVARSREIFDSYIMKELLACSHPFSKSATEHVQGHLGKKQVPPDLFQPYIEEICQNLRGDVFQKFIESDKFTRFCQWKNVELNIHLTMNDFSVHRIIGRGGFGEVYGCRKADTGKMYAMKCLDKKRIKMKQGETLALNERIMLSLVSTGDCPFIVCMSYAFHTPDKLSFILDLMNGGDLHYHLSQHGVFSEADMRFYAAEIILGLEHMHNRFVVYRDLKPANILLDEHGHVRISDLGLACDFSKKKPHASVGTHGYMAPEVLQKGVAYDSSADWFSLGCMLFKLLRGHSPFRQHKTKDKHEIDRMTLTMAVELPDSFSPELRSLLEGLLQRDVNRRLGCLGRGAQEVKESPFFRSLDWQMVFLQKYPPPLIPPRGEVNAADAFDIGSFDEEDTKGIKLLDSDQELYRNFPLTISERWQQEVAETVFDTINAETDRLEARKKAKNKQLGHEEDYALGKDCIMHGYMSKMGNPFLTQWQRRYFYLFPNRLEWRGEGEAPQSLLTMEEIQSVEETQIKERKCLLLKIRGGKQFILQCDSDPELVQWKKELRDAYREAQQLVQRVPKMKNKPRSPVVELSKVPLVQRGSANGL
Sequence of UniProt P68400 (whole entry, looked up): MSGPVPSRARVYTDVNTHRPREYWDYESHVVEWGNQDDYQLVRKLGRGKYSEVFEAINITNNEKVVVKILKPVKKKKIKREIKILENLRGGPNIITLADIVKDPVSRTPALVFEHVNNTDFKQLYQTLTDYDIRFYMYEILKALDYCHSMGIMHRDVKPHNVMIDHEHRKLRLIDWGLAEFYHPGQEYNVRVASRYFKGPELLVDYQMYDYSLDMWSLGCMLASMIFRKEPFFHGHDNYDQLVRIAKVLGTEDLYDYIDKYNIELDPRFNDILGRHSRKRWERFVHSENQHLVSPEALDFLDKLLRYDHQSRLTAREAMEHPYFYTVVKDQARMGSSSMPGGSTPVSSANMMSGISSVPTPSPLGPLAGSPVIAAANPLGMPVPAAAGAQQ
Sequence of UniProt Q9Y5Y4 (whole entry, looked up): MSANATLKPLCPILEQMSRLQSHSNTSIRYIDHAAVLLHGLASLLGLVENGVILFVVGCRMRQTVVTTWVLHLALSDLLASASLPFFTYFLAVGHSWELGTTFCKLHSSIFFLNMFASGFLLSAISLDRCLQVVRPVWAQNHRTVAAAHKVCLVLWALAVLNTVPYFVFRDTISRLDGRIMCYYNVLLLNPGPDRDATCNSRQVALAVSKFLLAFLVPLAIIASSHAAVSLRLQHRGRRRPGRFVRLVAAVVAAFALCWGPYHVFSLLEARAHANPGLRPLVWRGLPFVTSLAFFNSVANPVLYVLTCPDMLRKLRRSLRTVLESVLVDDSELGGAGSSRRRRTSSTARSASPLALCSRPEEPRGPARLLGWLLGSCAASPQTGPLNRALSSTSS
Sequence of UniProt Q12851 (whole entry, looked up): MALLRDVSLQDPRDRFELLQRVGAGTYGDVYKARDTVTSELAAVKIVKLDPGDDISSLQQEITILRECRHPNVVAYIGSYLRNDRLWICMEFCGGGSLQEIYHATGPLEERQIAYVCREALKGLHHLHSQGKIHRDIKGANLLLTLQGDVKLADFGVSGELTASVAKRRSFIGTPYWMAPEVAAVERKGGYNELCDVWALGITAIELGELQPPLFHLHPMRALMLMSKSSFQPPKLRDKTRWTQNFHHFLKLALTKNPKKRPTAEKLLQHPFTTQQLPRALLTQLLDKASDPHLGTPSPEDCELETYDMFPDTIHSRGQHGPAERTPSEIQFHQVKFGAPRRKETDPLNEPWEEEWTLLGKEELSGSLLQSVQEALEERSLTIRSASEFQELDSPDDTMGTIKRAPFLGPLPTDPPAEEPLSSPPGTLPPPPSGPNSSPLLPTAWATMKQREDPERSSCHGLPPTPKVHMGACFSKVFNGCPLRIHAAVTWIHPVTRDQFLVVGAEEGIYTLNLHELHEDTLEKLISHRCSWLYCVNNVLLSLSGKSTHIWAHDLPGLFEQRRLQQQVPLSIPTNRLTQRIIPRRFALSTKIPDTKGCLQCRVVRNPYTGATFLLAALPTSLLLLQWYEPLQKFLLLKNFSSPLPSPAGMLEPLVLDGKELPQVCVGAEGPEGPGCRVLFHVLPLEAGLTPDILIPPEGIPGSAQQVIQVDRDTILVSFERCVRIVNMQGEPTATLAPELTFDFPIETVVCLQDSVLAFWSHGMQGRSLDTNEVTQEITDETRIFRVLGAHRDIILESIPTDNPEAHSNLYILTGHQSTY
Sequence of UniProt Q9Y2T5 (whole entry, looked up): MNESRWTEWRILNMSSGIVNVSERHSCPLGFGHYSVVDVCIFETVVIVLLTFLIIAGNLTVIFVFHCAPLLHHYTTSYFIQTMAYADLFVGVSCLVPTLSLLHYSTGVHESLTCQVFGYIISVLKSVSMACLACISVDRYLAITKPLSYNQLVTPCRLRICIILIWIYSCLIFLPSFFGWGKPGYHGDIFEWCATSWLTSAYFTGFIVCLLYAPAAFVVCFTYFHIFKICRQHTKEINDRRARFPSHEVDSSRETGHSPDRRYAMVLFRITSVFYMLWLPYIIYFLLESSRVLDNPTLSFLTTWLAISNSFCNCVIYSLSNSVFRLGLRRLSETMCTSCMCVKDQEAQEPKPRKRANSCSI
Sequence of UniProt P42336 (whole entry, unmodified, looked up): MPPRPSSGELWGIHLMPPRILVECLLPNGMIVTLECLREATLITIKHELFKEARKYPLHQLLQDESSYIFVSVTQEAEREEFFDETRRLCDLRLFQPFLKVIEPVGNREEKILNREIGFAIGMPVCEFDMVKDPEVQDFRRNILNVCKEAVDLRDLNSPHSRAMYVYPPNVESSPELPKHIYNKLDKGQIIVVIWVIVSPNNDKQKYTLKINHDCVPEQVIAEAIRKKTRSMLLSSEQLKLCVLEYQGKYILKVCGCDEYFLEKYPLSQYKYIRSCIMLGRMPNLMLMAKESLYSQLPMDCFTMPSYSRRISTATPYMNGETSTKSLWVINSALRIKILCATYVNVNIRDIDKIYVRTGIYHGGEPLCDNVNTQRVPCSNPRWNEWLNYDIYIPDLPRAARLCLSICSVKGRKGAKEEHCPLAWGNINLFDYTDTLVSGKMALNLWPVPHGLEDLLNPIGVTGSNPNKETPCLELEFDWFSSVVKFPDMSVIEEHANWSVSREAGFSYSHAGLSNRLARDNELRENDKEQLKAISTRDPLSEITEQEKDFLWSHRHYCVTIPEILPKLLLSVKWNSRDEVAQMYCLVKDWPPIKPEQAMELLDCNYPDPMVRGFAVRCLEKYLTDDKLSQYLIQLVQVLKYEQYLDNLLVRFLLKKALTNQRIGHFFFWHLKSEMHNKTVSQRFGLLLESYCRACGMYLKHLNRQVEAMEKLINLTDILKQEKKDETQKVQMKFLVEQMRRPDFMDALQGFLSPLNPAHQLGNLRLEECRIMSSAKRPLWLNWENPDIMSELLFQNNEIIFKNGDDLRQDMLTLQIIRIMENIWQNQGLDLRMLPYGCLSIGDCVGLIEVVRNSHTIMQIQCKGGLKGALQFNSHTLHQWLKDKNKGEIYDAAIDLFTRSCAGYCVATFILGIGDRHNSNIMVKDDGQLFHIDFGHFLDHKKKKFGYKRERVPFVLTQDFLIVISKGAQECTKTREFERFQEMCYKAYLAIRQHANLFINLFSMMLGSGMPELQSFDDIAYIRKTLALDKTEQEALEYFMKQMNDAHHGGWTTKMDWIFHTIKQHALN
Sequence of UniProt O00141 (whole entry, looked up): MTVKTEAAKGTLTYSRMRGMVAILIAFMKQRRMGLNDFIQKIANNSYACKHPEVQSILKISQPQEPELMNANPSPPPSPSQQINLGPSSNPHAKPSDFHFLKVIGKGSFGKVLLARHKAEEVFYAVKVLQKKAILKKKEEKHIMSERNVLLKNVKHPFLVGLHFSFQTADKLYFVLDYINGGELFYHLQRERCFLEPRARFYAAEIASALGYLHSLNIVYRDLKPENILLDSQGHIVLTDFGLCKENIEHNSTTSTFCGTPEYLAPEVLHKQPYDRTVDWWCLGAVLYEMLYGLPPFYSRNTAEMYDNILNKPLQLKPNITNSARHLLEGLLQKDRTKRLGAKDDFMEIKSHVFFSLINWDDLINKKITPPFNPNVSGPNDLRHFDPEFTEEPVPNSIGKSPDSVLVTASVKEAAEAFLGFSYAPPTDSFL
Sequence of UniProt P30542 (whole entry, looked up): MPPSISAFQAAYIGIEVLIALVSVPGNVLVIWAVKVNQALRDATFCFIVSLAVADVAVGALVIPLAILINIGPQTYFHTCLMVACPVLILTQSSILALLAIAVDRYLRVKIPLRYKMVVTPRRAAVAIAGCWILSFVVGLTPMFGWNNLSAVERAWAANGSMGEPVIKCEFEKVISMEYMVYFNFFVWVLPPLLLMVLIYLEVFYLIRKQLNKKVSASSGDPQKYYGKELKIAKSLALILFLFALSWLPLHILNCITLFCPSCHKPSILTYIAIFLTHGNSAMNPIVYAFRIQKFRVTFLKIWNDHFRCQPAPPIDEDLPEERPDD
Sequence of UniProt P36894 (whole entry, looked up): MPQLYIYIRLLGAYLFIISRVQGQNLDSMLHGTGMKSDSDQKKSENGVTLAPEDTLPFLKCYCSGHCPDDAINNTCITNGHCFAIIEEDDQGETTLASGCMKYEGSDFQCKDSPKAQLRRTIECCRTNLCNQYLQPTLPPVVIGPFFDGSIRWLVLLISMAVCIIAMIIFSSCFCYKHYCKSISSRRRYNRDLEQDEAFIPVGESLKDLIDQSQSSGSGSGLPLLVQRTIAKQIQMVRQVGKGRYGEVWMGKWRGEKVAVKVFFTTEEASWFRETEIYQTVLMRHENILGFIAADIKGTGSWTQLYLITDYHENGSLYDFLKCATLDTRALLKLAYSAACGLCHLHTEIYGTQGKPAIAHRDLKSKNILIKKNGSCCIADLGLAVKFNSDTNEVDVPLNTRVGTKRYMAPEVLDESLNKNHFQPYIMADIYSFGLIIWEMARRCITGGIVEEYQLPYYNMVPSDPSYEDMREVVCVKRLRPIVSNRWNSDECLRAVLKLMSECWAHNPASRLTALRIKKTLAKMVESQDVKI

Sample 1
Target: Serine/threonine-protein kinase Nek2 (NEK2, Homo sapiens, UniProt P51955)
Effect on: enzyme activity
Mode: inhibitor
Concentration: 0.5 µM
Relative to: control
Target sequence (P51955 1-445): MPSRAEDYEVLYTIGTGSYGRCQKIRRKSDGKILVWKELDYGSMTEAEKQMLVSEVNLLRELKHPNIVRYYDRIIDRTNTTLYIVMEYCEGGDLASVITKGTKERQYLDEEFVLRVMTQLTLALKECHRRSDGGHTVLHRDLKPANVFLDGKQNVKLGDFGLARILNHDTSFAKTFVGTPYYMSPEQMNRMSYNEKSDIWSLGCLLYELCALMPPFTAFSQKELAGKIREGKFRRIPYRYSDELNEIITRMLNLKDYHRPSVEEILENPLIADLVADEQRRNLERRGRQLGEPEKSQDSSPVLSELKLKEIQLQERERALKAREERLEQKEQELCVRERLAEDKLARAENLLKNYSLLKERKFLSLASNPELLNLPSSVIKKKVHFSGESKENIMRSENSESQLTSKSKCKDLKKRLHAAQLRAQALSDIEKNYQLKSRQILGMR
| Compound | remaining activity |
| --- | --- |
| Cc1cncc2cccc(S(=O)(=O)N3CCCN(C(=O)CN)C[C@@H]3C)c12 | 105% |
| O=C1Cc2c([nH]c3ccc([N+](=O)[O-])cc23)-c2ccccc2N1 | 92.4% |
| Nc1nc(Nc2ccc(S(N)(=O)=O)cc2)nn1C(=O)c1c(F)cccc1F | 94.8% |
| CC(=O)c1ccc(N2CCOCC2)cc1O | 81.3% |
| O=S(=O)(NCCNC/C=C/c1ccc(Br)cc1)c1cccc2cnccc12 | 97.1% |
| NC(=O)c1ccc(N(C(N)=O)c2c(F)cccc2F)nc1-c1ccc(F)cc1F | 109% |
| Oc1ccc(Nc2nc(-c3ccc(Cl)cc3)cs2)cc1 | 110% |
| CC#CC(=O)Nc1cc2c(Nc3ccc(F)c(Cl)c3)ncnc2cn1 | 103% |
| COc1ccc(S(=O)(=O)N(CCO)c2ccccc2CN(C)CC=Cc2ccc(Cl)cc2)cc1 | 86.6% |
| CCCC(=O)Oc1ccc2[nH]c(C(=O)c3cc4ccccc4[nH]3)cc2c1 | 86.8% |

Sample 2
SMILES: CC(C)S(=O)(=O)c1ccc2nccc(Nc3ccc4sc(C5CCCC5)nc4c3)c2c1
Effect on: enzyme activity
Mode: inhibitor
Concentration: 1 µM
| target | activity vs control |
| --- | --- |
| Serine/threonine-protein kinase WNK3 (WNK3, Homo sapiens, UniProt Q9BYP7) | 117% |
| Serine/threonine-protein kinase LATS2 (LATS2, Homo sapiens, UniProt Q9NRM7) | 117% |
| Phosphatidylinositol 4,5-bisphosphate 3-kinase catalytic subunit gamma isoform (PIK3CG, Homo sapiens, UniProt P48736) | 83% |
| Death-associated protein kinase 1 (DAPK1, Homo sapiens, UniProt P53355) | 117% |
| Ribosomal protein S6 kinase alpha-1 (RPS6KA1, Homo sapiens, UniProt Q15418) | 89.5% |
| Beta-adrenergic receptor kinase 1 (GRK2, Homo sapiens, UniProt P25098) | 93.5% |
| Serine/threonine-protein kinase BRSK2 (BRSK2, Homo sapiens, UniProt Q8IWQ3) | 100% |
| Casein kinase II subunit alpha (CSNK2A1, Homo sapiens, UniProt P68400) | 94% |
| Ephrin type-B receptor 4 (EPHB4, Homo sapiens, UniProt P54760) | 108% |
| Platelet-derived growth factor receptor alpha (PDGFRA, Homo sapiens, UniProt P16234) | 112% |
| Mitogen-activated protein kinase kinase kinase kinase 2 (MAP4K2, Homo sapiens, UniProt Q12851) | 93.5% |
| Serine/threonine-protein kinase ULK3 (ULK3, Homo sapiens, UniProt Q6PHR2) | 92% |

Sample 3
Structure (SMILES): CCN(c1nc(N)c(C(=O)N=C(N)N)nc1Cl)C(C)C
Effect on: β-arrestin recruitment
Mode: agonist
Technique: PRESTO-Tango
Concentration: 10 µM
Relative to: untreated
| target | fold over basal |
| --- | --- |
| Prolactin-releasing peptide receptor (PRLHR, Homo sapiens, UniProt P49683) | 0.99 |
| Prostaglandin D2 receptor 2 (PTGDR2, Homo sapiens, UniProt Q9Y5Y4) | 0.98 |
| Secretin receptor (SCTR, Homo sapiens, UniProt P47872) | 1.1 |
| G-prodeshotein coupled receptor 4 (GPR4, Homo sapiens, UniProt P46093) | 1.42 |
| Mas-related G-protein coupled receptor MRG (MAS1L, Homo sapiens, UniProt P35410) | 0.81 |
| Adenosine receptor A1 (ADORA1, Homo sapiens, UniProt P30542) | 0.86 |
| Thyrotropin-releasing hormone receptor (TRHR, Homo sapiens, UniProt P34981) | 3.03 fold |
| G-protein coupled receptor 52 (GPR52, Homo sapiens, UniProt Q9Y2T5) | 0.92 |
| Probable G-protein coupled receptor 19 (GPR19, Homo sapiens, UniProt Q15760) | 1.46 |

Sample 4
Structure (SMILES): CNC(=O)Nc1ccc2c(c1)[C@@]1(CC2)OC(=O)N(CC(=O)N(Cc2ccc(F)cc2)[C@@H](C)C(F)(F)F)C1=O
Technique: competition with immobilised ligand
Concentration: 1 µM
| target | effect on | remaining binding |
| --- | --- | --- |
| Tyrosine-protein kinase SYK (SYK, Homo sapiens, UniProt P43405) | cell-free assay | 82% |
| Calcium/calmodulin-dependent protein kinase type 1B (PNCK, Homo sapiens, UniProt Q6P2M8) | cell-free assay | 90% |
| Casein kinase II subunit alpha (CSNK2A1, Homo sapiens, UniProt P68400) | cell-free assay | 60% |
| Serine/threonine-protein kinase PRP4 homolog (PRPF4B, Homo sapiens, UniProt Q13523) | cell-free assay | 90% |
| Tyrosine-protein kinase receptor TYRO3 (TYRO3, Homo sapiens, UniProt Q06418) | cell-free assay | 70% |
| Beta-adrenergic receptor kinase 1 (GRK2, Homo sapiens, UniProt P25098) | cell-free assay | 76% |
| Tyrosine-protein kinase JAK1, JH2 (JAK1, Homo sapiens, UniProt P23458) | cell-free assay | 85% |
| Proto-oncogene tyrosine-protein kinase receptor Ret (RET, Homo sapiens, UniProt P07949, V804M) | cell-free assay | 100% |
| Serine/threonine-protein kinase pim-1 (PIM1, Homo sapiens, UniProt P11309) | cell-free assay | 100% |
| Mitogen-activated protein kinase kinase kinase kinase 3 (MAP4K3, Homo sapiens, UniProt Q8IVH8) | cell-free assay | 89% |
| Phosphatidylinositol 4,5-bisphosphate 3-kinase catalytic subunit alpha isoform (PIK3CA, Homo sapiens, UniProt P42336, E545A) | cell-free assay | 97% |
| Receptor-interacting serine/threonine-protein kinase 2 (RIPK2, Homo sapiens, UniProt O43353) | cell-free assay | 83% |
| Activin receptor type-2B (ACVR2B, Homo sapiens, UniProt Q13705) | cell-free assay | 100% |
| Tyrosine-protein kinase ABL1, non-phosphorylated (ABL1, Homo sapiens, UniProt P00519, T315I) | cell-free assay | 86% |
| Ribosomal protein S6 kinase alpha-5, C-terminal kinase domain (RPS6KA5, Homo sapiens, UniProt O75582) | cell-free assay | 72% |
| Epidermal growth factor receptor (EGFR, Homo sapiens, UniProt P00533, G719C) | cell-free assay | 100% |
| Glycogen synthase kinase-3 alpha (GSK3A, Homo sapiens, UniProt P49840) | cell-free assay | 92% |
| Serine/threonine-protein kinase Sgk1 (SGK1, Homo sapiens, UniProt O00141) | cell-free assay | 54% |
| Bone morphogenetic protein receptor type-1A (BMPR1A, Homo sapiens, UniProt P36894) | binding | 100% |
| Death-associated protein kinase 2 (DAPK2, Homo sapiens, UniProt Q9UIK4) | cell-free assay | 100% |
| Serine/threonine-protein kinase 35 (STK35, Homo sapiens, UniProt Q8TDR2) | cell-free assay | 85% |
| Macrophage colony-stimulating factor 1 receptor (CSF1R, Homo sapiens, UniProt P07333) | cell-free assay | 98% |

Repeated from above (sample 1):
| Compound | remaining activity |
| --- | --- |
| Cc1cncc2cccc(S(=O)(=O)N3CCCN(C(=O)CN)C[C@@H]3C)c12 | 105% |
| O=C1Cc2c([nH]c3ccc([N+](=O)[O-])cc23)-c2ccccc2N1 | 92.4% |
| Nc1nc(Nc2ccc(S(N)(=O)=O)cc2)nn1C(=O)c1c(F)cccc1F | 94.8% |
| CC(=O)c1ccc(N2CCOCC2)cc1O | 81.3% |
| O=S(=O)(NCCNC/C=C/c1ccc(Br)cc1)c1cccc2cnccc12 | 97.1% |
| NC(=O)c1ccc(N(C(N)=O)c2c(F)cccc2F)nc1-c1ccc(F)cc1F | 109% |
